Published values of several laboratories.
± marks the error that the study gave.
MAPK14: Mitogen-activated protein kinase 14 (MAPK14, Homo sapiens, UniProt Q16539)

Chains of the proteins cited; added tags and fusions are not shown. Residues count along the entry.
UniProt Q16539, whole entry: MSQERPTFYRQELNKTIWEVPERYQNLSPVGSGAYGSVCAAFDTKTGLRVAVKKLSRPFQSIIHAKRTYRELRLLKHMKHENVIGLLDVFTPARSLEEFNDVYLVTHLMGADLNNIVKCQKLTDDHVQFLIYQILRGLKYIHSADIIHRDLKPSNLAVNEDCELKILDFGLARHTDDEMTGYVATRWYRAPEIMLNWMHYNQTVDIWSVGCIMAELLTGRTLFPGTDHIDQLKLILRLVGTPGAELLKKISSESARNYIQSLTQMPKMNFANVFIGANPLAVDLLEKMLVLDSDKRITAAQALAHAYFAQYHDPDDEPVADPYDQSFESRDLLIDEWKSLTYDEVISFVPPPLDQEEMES
UniProt Q9NRA0, whole entry: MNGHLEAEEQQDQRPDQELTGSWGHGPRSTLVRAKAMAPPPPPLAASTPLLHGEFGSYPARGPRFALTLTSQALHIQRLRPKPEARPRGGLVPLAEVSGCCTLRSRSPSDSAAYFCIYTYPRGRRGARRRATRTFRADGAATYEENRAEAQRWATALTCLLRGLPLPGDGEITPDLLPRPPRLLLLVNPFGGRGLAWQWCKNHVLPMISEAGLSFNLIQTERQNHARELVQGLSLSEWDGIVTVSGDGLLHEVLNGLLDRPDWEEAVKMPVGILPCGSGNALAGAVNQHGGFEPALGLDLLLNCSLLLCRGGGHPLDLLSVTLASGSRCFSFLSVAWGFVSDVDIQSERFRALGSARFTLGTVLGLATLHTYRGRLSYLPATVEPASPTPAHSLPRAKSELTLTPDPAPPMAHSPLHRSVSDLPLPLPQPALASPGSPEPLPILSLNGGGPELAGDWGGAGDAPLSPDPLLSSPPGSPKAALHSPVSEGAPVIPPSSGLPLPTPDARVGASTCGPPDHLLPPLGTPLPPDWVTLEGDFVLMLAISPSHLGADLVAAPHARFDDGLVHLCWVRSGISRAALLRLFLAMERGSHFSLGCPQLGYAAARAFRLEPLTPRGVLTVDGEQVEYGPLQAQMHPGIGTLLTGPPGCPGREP
UniProt P30542, whole entry: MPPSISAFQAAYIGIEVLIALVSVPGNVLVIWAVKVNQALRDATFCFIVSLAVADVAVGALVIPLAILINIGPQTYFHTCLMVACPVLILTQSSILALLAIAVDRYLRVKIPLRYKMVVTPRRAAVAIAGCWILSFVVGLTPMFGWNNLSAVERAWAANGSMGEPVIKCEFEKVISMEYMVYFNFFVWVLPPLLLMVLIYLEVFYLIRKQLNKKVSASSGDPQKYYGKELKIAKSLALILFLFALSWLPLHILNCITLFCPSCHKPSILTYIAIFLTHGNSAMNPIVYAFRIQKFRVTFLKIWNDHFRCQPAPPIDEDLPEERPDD
UniProt P13569, whole entry: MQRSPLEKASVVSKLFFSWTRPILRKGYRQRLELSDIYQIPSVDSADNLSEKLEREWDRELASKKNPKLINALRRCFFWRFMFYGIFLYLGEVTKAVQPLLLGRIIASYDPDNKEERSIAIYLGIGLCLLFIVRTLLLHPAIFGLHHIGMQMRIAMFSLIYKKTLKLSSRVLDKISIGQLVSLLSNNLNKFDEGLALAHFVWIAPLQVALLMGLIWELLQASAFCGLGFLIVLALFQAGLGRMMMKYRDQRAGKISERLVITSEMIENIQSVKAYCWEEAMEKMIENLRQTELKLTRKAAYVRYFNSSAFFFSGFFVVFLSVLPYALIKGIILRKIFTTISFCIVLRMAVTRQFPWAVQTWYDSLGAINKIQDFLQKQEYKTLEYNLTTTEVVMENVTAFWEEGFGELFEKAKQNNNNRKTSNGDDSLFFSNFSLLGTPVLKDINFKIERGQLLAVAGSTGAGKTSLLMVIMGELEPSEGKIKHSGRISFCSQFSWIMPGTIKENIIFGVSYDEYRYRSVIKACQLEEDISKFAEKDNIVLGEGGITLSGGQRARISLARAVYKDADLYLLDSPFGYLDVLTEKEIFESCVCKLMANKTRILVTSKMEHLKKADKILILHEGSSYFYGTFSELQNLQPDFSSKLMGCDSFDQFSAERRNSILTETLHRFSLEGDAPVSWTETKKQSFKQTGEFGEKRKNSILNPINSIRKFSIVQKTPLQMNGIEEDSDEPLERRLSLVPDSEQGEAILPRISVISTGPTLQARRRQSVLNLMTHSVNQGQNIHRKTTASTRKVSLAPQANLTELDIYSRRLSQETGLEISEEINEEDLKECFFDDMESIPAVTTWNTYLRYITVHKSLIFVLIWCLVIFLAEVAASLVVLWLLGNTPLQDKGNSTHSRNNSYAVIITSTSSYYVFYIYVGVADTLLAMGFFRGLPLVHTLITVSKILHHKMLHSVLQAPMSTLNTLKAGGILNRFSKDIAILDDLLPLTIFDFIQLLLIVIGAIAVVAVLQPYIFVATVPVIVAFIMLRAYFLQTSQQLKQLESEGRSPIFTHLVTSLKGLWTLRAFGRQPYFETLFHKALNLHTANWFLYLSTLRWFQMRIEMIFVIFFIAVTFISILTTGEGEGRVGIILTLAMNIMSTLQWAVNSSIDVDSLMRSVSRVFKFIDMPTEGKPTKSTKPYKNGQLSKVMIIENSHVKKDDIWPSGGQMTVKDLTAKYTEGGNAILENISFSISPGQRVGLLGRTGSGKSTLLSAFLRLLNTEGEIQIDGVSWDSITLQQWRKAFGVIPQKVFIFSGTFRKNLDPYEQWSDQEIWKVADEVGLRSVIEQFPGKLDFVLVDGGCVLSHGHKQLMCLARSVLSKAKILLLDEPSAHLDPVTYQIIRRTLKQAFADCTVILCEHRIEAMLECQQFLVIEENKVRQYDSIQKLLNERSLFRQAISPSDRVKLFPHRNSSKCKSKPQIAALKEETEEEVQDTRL
UniProt Q04609, whole entry: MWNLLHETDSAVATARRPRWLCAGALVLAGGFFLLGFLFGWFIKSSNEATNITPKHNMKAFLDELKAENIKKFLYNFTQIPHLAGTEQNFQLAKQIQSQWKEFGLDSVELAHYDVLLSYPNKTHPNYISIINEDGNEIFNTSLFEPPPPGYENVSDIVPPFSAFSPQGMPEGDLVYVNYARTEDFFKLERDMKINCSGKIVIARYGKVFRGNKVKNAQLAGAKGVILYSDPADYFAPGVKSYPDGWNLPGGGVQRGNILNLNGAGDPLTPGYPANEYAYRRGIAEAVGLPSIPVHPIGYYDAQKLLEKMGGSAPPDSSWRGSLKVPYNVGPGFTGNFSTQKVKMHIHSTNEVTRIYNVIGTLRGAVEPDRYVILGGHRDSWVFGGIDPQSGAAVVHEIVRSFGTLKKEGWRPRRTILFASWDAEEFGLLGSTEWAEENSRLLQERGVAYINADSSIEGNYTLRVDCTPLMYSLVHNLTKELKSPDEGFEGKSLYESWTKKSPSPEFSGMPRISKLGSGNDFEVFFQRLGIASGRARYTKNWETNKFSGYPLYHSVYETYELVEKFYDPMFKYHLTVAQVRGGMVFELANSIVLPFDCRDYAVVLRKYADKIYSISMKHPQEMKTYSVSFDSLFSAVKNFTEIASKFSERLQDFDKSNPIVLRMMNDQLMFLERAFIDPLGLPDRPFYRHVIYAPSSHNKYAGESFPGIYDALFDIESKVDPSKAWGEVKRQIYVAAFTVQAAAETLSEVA
UniProt Q2M2I8, 31-396 limits assumed: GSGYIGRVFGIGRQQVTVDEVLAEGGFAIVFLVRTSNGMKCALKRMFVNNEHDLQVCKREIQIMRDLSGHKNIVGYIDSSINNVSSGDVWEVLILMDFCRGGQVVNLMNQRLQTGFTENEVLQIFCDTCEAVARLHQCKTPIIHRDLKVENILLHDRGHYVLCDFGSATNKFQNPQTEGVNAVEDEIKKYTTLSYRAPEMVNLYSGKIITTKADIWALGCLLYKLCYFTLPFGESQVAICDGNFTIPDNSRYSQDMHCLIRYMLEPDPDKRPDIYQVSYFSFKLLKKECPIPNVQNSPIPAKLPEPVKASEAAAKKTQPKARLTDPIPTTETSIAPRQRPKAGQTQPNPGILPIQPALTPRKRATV
UniProt P31645, whole entry: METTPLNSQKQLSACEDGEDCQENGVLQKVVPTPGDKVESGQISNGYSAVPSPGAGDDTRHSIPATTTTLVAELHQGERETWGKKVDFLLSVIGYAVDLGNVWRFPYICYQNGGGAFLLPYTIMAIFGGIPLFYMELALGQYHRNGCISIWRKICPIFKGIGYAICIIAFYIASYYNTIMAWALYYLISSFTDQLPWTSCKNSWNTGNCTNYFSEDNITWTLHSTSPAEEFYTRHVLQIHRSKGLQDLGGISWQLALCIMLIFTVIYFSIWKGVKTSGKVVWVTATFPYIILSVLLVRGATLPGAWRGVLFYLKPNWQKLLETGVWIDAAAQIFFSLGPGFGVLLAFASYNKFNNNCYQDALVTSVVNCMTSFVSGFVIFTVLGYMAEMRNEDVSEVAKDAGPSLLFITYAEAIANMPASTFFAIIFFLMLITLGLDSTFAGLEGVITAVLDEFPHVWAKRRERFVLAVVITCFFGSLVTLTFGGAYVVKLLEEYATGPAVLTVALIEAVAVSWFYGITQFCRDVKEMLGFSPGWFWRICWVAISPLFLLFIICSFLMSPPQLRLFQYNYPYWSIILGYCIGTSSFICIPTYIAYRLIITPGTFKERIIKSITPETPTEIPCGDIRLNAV
UniProt P22756, 31-920 isoform 4 limits assumed: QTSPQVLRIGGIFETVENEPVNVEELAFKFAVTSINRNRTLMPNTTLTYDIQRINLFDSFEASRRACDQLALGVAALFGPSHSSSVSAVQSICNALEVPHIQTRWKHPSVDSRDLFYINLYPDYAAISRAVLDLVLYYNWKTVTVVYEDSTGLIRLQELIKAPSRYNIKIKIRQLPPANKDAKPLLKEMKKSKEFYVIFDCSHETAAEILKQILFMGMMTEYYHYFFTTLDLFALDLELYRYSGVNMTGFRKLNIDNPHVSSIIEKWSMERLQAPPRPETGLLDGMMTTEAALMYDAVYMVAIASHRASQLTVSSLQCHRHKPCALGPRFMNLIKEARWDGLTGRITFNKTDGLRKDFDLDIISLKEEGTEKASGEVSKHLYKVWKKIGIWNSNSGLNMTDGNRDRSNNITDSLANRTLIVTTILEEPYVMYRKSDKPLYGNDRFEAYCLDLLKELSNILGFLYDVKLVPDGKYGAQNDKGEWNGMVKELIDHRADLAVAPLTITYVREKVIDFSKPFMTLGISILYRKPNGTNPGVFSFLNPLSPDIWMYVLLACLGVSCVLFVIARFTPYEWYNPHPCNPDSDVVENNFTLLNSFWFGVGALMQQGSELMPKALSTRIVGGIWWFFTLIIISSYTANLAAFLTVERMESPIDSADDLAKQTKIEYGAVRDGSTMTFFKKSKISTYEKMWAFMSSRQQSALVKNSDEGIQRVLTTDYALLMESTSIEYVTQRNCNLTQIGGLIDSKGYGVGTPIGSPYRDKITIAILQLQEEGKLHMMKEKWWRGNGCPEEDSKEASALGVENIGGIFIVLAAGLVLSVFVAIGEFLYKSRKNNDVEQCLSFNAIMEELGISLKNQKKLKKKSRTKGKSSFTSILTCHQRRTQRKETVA
UniProt Q9NYA1, 1-470 isoform 2: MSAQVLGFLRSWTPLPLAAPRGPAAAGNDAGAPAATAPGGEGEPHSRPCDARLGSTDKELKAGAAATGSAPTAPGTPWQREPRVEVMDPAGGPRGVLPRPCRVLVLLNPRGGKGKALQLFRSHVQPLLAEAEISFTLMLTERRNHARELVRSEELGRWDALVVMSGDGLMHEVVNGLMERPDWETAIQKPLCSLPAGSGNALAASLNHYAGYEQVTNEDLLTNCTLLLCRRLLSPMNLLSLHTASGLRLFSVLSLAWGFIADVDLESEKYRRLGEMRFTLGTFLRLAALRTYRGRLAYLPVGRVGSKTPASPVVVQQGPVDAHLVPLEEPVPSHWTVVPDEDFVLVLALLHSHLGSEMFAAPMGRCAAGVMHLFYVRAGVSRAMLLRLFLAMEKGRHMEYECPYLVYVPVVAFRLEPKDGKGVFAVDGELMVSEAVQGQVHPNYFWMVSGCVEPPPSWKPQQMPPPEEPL
UniProt P30419, whole entry: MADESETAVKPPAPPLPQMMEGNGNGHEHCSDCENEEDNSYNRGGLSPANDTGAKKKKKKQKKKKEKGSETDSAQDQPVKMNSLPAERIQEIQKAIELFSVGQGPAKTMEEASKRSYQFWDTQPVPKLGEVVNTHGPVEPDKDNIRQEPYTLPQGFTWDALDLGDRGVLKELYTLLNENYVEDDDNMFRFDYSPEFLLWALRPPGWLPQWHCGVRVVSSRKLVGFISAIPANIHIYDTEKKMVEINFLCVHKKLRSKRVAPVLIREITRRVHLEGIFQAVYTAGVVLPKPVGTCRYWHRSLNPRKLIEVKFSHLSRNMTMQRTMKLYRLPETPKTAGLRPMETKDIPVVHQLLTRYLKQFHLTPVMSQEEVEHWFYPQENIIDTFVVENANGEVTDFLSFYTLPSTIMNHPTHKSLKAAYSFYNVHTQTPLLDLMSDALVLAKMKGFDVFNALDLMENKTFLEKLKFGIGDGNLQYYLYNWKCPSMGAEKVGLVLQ

Compound	target	test	system	setting	Ki [µM]
CCCCCCCCc1ccc(C2CCC([N+](C)(C)CCC)CC2)cc1 (stereo not shown)	Sphingosine kinase 2 (SPHK2, Homo sapiens, UniProt Q9NRA0)	enzyme activity, inhibitor, radiometric flash-plate	cell lysate	added: sphingosine 5 µM	8 ± 1
N#Cc1c(N)nc(SCc2ncc[nH]2)c(C#N)c1-c1cccc(O)c1	Adenosine receptor A1 (ADORA1, Homo sapiens, UniProt P30542)	radioligand displacement	HEK293 membranes	1 h, 25 °C, added: 0.5 nM [3H]DPCPX	0.0096 ± 0.004
FC1CCN(c2ccc(-c3ccc4sc(-c5ccnnc5)cc4n3)cn2)CC1	Alpha-synuclein, PD brain aggregates (SNCA, Homo sapiens, UniProt P37840)	binding	Parkinson's disease brain homogenate	added: [3H]asyn-44 1 nM	0.0264
O=C(CNc1ccc2ncccc2c1)N/N=C/c1cc(Br)c(O)c(Br)c1	Cystic fibrosis transmembrane conductance regulator (CFTR, Homo sapiens, UniProt P13569)	apical chloride current, inhibitor	FRT cells expressing CFTR	basolateral membrane permeabilised	25 to 50
COC(=O)C1(C)C=C(C(=O)Nc2ccccc2)C(=O)CC1 (stereo not shown)	MAPK14	D-peptide displacement, fluorescence polarization	–	–	19.3 ± 3.1
CCCCCCCCC(CCCCCCC=CCCCCCCC(CCCCCCCC)C(=O)OCC1(CO)CC(=C(C)C)C(=O)O1)C(=O)OCC1(CO)CC(=C(C)C)C(=O)O1 (racemic)	Protein kinase C alpha type (PRKCA, Homo sapiens, UniProt P17252)	binding, [3H]PDBu competition	–	added: phosphatidylserine 100 µg/mL	0.0485 ± 0.0063
CC[N+]1=C(C=CC=CC=C2N(CCCCCC(=O)NCCCC[C@H](NC(=O)N[C@@H](CCC(=O)O)C(=O)O)C(=O)O)c3ccc4c(S(=O)(=O)O)cc(S(=O)(=O)O)cc4c3C2(C)C)C(C)(C)c2c1ccc1c(S(=O)(=O)O)cc(S(=O)(=O)[O-])cc21	Glutamate carboxypeptidase 2 (FOLH1, Homo sapiens, UniProt Q04609)	enzyme activity, inhibitor	–	compound in water, added: [3H]NAAG 30 nM	9e-05 ± 4e-05
C[C@H](NC(=O)c1cc(C(=O)O)cc([C@H]2CCN[C@@H]2C(=O)O)c1)C(=O)O	Glutamate receptor ionotropic, kainate 3 (Rattus norvegicus, UniProt P42264)	binding, radioligand binding	Sf9 membranes	homomeric receptor, added: [3H]kainate	17.8 ± 2.1
COc1cc(Nc2ccnc3cc(-c4ccncc4)ccc23)cc(OC)c1OC	AP2-associated protein kinase 1 (AAK1, Homo sapiens, UniProt Q2M2I8)	–	–	–	2.8
CCOC(=O)N(Cc1ccccc1)C(=O)/C(C#N)=C/c1ccc(Cl)c(Cl)c1	PRKCA-binding protein, PDZ domain (Pick1, Rattus norvegicus, UniProt Q9EP80)	binding, fluorescence polarization	–	added: labelled hDAT C-terminal peptide	14 ± 1.7
CCCCOC(=O)[C@@]12C[C@@H]1[C@@H](n1cnc3c(NC)nc(C#Cc4ccc(Cl)s4)nc31)[C@H](O)[C@@H]2O	Sodium-dependent serotonin transporter (SLC6A4, Homo sapiens, UniProt P31645)	binding, radioligand binding	HEK293	added: [3H]citalopram	4.1
COC(=O)C1(C)C=C(C(=O)NCc2ccccc2)C(=O)CC1 (stereo not shown)	MAPK14	D-peptide displacement, fluorescence polarization	–	–	42.2 ± 2.9
CC(C)C[C@H](NC(=O)c1cc(C(=O)O)cc([C@H]2CCN[C@@H]2C(=O)O)c1)C(=O)O	Glutamate receptor ionotropic, kainate 1 (Rattus norvegicus, UniProt P22756)	binding, radioligand binding	Sf9 membranes	homomeric receptor, added: [3H]SYM2081	11.7 ± 1.4
CCCCCCCCCCCCc1ccc(C(=O)NC2(C(=N)N)CC2)cc1	Sphingosine kinase 1 (SPHK1, Homo sapiens, UniProt Q9NYA1)	inhibitor, FlashPlate	–	–	0.3
COc1ccc(CN(C)CCO/N=C(\C)c2ccc(C(F)(F)F)cc2)cc1	Sigma non-opioid intracellular receptor 1 (Sigmar1, Rattus norvegicus, UniProt Q9R0C9)	radioligand binding	rat	–	0.0382 ± 0.00238
O=C(OCc1ccccc1)c1ccccc1OC1CCNCC1	Glycylpeptide N-tetradecanoyltransferase 1 (NMT1, Homo sapiens, UniProt P30419)	enzyme activity, inhibitor, CPM fluorescence	–	–	> 100

Some of these lines once more:
Compound	target	test	system	setting	Ki [µM]
C[C@H](NC(=O)c1cc(C(=O)O)cc([C@H]2CCN[C@@H]2C(=O)O)c1)C(=O)O	Glutamate receptor ionotropic, kainate 3 (Rattus norvegicus, UniProt P42264)	binding, radioligand binding	Sf9 membranes	homomeric receptor, added: [3H]kainate	17.8 ± 2.1
